Assay results from different studies.
Each line is one published result; not all experiments were run side by side. Several values in a cell are separate wells, animals, samples, runs or records. ± marks the error that the study gave.

Structure (SMILES) = Cc1cc(Oc2nc(N3CC[C@@H](c4ccncc4)C3)ncc2F)[nH]n1; cell line = Cervix cancer cell lines; test = cell proliferation; quantity = IC50; value = 44.7 µM
Structure (SMILES) = CC1CCC2C(C)C(OC(=O)CCC(=O)N3CCC(Nc4ccc(S(=O)(=O)NC(=O)c5ccc(N6CCN(CC7=C(c8ccc(Cl)cc8)CC(C)(C)CC7)CC6)cc5Oc5cnc6[nH]ccc6c5)cc4[N+](=O)[O-])CC3)OC3OC4(C)CCC1C32OO4 (stereo not drawn); cell line = THP-1; test = annexin V/PI flow cytometry, measured: annexin V-/PI+; setting = 0.4 µM, 24 h; quantity = necrotic cells; value = 0.6%
Structure (SMILES) = CC(C)C[C@H](NC(=O)[C@H](CCC(=O)O)NC(=O)[C@@H](NC(=O)CN)[C@@H](C)O)C(=O)N1CCC[C@H]1C(=O)N[C@@H](CO)C(=O)N1CCC[C@H]1C(=O)N1CCC[C@H]1C(=O)N[C@@H](CO)C(=O)N[C@H](C(=O)N[C@@H](Cc1c[nH]c2ccccc12)C(=O)N[C@@H](Cc1ccccc1)C(=O)N[C@@H](CCC(=O)O)C(=O)N[C@@H](C)C(=O)N[C@@H](CCC(=O)O)C(=O)N[C@@H](Cc1ccccc1)C(=O)O)C(C)C; cell line = HepG2; test = MTT; setting = 40 µg/mL, 24 h; quantity = viability; value = 92.94 ± 0.66%
Structure (SMILES) = O=C(C[Se]C(=O)c1cccs1)Nc1cccc(C(F)(F)F)c1; cell line = NCI60 CNS subpanel; test = cell growth; setting = 10 µM, 48 h, one-dose; quantity = mean growth percent; value = -86.9%
Structure (SMILES) = CC(C)(C)C(=O)OCOP(=O)(OCOC(=O)C(C)(C)C)C1CCCN(O)C1=O (stereo not drawn); cell line = OVCAR-4; quantity = log LC50; value = > -4 log M
Structure (SMILES) = CC(C)C[C@H](NC(=O)[C@H](CCC(=O)O)NC(=O)[C@@H](N)Cc1ccccc1)C(=O)N[C@@H](CCC(=O)O)C(=O)N[C@@H](CCCNC(=N)N)C(=O)N[C@@H](CCCNC(=N)N)C(=O)N[C@@H](Cc1ccccc1)C(=O)N[C@@H](CCCCN)C(=O)N[C@@H](CCC(N)=O)C(=O)N[C@@H](CCC(N)=O)C(=O)O; cell line = HCT-116; test = CCK-8; setting = 10 µM; how to read = baseline: vehicle; quantity = viability; value = 99.1% and 99.9% and 99.4%
Structure (SMILES) = CC(C)CC(O)(CC(C)C)c1cn(C(=O)N2CCCC2)nn1; cell line = mouse T-cells; test = protein abundance, unenriched SILAC proteomics, measured: Tfg; setting = 1 nM, 6 h, single tryptic peptide; how to read = baseline: DMSO; quantity = SILAC ratio; value = 1.01 and 0.85
Structure (SMILES) = CC(C)C[C@H](NC(=O)[C@H](CC(=O)O)NC(=O)CNC(=O)[C@@H](N)CCCNC(=N)N)C(=O)N[C@@H](C)C(=O)N[C@H](C(=O)N[C@@H](CC(C)C)C(=O)N[C@@H](CCCNC(=N)N)C(=O)N[C@@H](CCC(N)=O)C(=O)N[C@@H](CC(C)C)C(=O)N[C@@H](C)C(=O)N[C@@H](CCC(N)=O)C(=O)N[C@@H](CCC(=O)O)C(=O)N[C@@H](CC(=O)O)C(=O)NCC(=O)N[C@H](C(=O)N[C@H](C(=O)NCC(=O)N[C@H](C(=O)N[C@@H](CCCNC(=N)N)C(=O)NCCOCCOCCOCCOCCOCCOCCOCCOCCOCCOCCOCCOCCC(=O)N[C@@H](CS)C(N)=O)C(C)C)C(C)C)C(C)C)[C@@H](C)O; cell line = H1355 lung adenocarcinoma; test = cell binding, phage binding, measured: output/input phage; setting = 10 min, 37 °C; how to read = baseline: control phage; quantity = selectivity ratio; value = 2.9 ± 0.92
Structure (SMILES) = O=C(C[Se]C(=O)c1cc2ccccc2[nH]1)Nc1cccc(C(F)(F)F)c1; cell line = NCI60 CNS subpanel; test = NCI60 five-dose screen; quantity = CC50; value = 6.25 µM
